Results collected from several papers.
Compare with care: the assays were run in different laboratories. ± marks the error that the study gave.

CCCCCCCC[N+](CCO)(CCO)CCO — Kd (potassium channel; steady-state block; Doryteuthis pealeii; internal application, with: membrane potential +100 mV): 1110 µM
[2Fe-2S](GS)4 — Kd (ATM1 (Saccharomyces cerevisiae, UniProt P40416, D398N); ATPase stimulation, activator; D398N mutant, with: MgATP): 5.6 ± 0.8 µM
COc1cc2c(cc1OC)C13CCN4CC5=CCOC(CC(=O)O)C(C5CC41)C3N2 (stereo not drawn) — Kd (acetylcholine binding protein (Bulinus truncatus); binding, scintillation proximity; with: 5 nM [3H]epibatidine): 0.415 µM
cGMP — Kd (Potassium/sodium hyperpolarization-activated cyclic nucleotide-gated channel 2, C-terminal region (Hcn2, Mus musculus, UniProt O88703); binding, isothermal titration calorimetry; C-linker/CNBD tetramer, site 3): 6.13 µM
C[n+]1cn([C@@H]2O[C@H](COP(=O)(O)OP(=O)([O-])OP(=O)(O)OC[C@H]3O[C@@H](n4cnc5c(=O)[nH]c(N)nc54)[C@H](O)[C@@H]3O)[C@@H](O)[C@H]2O)c2nc(N)[nH]c(=O)c21 — Kd (m7GpppX diphosphatase (DCS1, Saccharomyces cerevisiae, UniProt Q06151, H268N/K126A); NMR titration; closed site, K126A H268N): 0.112 µM
C[C@@H]1O[C@@H](OC[C@H]2O[C@@H](Oc3c(-c4ccc(O)c(O)c4)oc4cc(O)cc(O)c4c3=O)[C@H](O)[C@@H](O)[C@@H]2O)[C@H](O)[C@H](O)[C@H]1O — Kd (ACE2 (Homo sapiens, UniProt Q9BYF1); binding, SPR): 82.4 µM
CN[C@@](C)(C[18F])C(=O)O — tissue uptake (SCID mouse MDA-MB-468 xenograft, muscle; 15 min, post injection): 1.1 ± 0.1 %ID/g
CC[N+](CC)(CC)CC(=O)Nc1c(C)cccc1C — Kd (sodium channel (rat brain), batrachotoxin-modified; open channel block, blocker, planar lipid bilayer, single channel; low affinity open state, +60 mV): 7500 µM
CCCCCCCO[C@@H]1C[C@@H](O)[C@@H](O)[C@H](O)[C@@H](CO)O1 — Kd (Type 1 fimbrin D-mannose specific adhesin, lectin domain (fimH, Escherichia coli K-12, UniProt P08191); binding, competitive fluorescence polarization; pH 7.4, isolated lectin domain): > 500 µM
c1ccc(-c2ccccc2)cc1 — Kd (Cytochrome P450 2A13 (Homo sapiens, UniProt Q16696); binding, absorbance; pH 7.4): 0.88 µM
CC[C@@H](/C=C(/C)[C@H]1C[C@H](OC)C[C@@H](O)C(C)(C)[C@]2(O)O[C@H](C[C@H](OC)[C@@H](O)C(=O)O1)C[C@H](OC)[C@@H]2O)CO — Kd (Tubulin beta chain, microtubules (Bos taurus, UniProt Q6B856); binding, Scatchard; bovine tubulin polymer; pH 6.6, 37 °C): 0.35 µM
CC[C@H](C)[C@H](NC(=O)[C@H](CCCCN)NC(=O)[C@@H](NC(=O)[C@@H](NC(=O)[C@H](CO)NC(=O)[C@H](CC(N)=O)NC(=O)[C@@H](NC(=O)[C@H](CC(N)=O)NC(=O)[C@H](CCCCN)NC(C)=O)C(C)C)[C@@H](C)CC)C(C)C)C(=O)N[C@@H](CCC(N)=O)C(=O)N[C@@H](C)C(=O)N[C@@H](Cc1ccccc1)C(=O)N[C@@H](Cc1ccccc1)C(=O)N[C@@H](CCCNC(=N)N)C(=O)N[C@@H](C)C(=O)N[C@@H](CCCNC(=N)N)C(=O)N[C@@H](CCCCN)C(=O)N[C@@H](C)C(=O)N[C@@H](CCC(N)=O)C(=O)N[C@@H](CC(=O)O)C(=O)N[C@@H](CC(=O)O)C(=O)N[C@@H](Cc1ccc(O)cc1)C(=O)N[C@@H](CCCNC(=N)N)C(N)=O — Kd (Calmodulin-1 (CALM1, Homo sapiens, UniProt P0DP23); binding, native gel titration; 1 h, 22 °C, with: Ca2+, calmodulin 35 µM): 65 ± 12 µM
O=c1ccn([C@H]2C[C@H](O)[C@@H](COP(=O)(O)O)O2)c(=O)[nH]1 — Kd (thyX (Thermotoga maritima, UniProt Q9WYT0)): 0.03 ± 0.02 µM
CCCn1c(=O)[nH]c2nc(-c3ccc(S(=O)(=O)O)cc3)[nH]c2c1=O — Kd (ADORA2A (Homo sapiens, UniProt P29274, A54L/K122A/T88A/V239A); binding, antagonist, surface plasmon resonance; 25 °C, 1% DMSO): 0.81 µM
OC[C@H]1O[C@@H](O[C@H]2[C@H](O)[C@@H](O)[C@H](O)O[C@@H]2CO)[C@H](O)[C@@H](O)[C@H]1O — Kd (Lectin (Erythrina crista-galli, UniProt P83410); BLI competition; solution Kd, with: LacNAc-biotin biosensor): 320 µM
CC[C@H](C)[C@H](NC(=O)[C@@H]1CCCN1C(=O)[C@@H](NC(=O)[C@H](CC(=O)O)NC(=O)[C@@H](NC(=O)[C@@H](N)CC(=O)O)[C@@H](C)O)[C@@H](C)O)C(=O)N[C@H](C(=O)N[C@@H](Cc1ccc(O)cc1)C(=O)N[C@@H](CC(N)=O)C(=O)N[C@@H](CC(=O)O)C(=O)N[C@@H](CCCNC(=N)N)C(=O)N[C@@H](CC(=O)O)C(=O)N[C@@H](CC(C)C)C(=O)N[C@@H](CC(C)C)C(=O)N[C@@H](CC(=O)O)C(=O)O)C(C)C — Kd (HSPA1A (Homo sapiens, UniProt P0DMV8); binding, SPR; pH 7.4): 782 µM
CCSCCNC(=O)CCNC(=O)[C@H](O)C(C)(C)COP(=O)(O)OP(=O)(O)OC[C@H]1O[C@@H](n2cnc3c(N)ncnc32)[C@H](O)[C@@H]1OP(=O)(O)O — Kd (Chloramphenicol acetyltransferase (cat, Escherichia coli, UniProt P62577); ligand, native ESI-MS; second ligand binding, gas phase, with: 200 mM ammonium acetate): 10 ± 5 µM
RFDSDAENPRYEPQAPWMEQE — Kd (murine mAb 64-3-7 Fab; binding, SPR; peptide): 0.127 ± 0.0014 µM
phosphatidylserine — Kd (Tricalbin-1, C2C domain (TCB1, Saccharomyces cerevisiae, UniProt Q12466); surface plasmon resonance; 20 mol% lipid in DOPC; GST fusion protein, with: Ca2+): 0.95 ± 0.57 µM
CC(=O)N[C@@H](C)C(=O)N[C@@H](CC(N)=O)C(=O)NCC(=O)N[C@@H](CC(N)=O)C(=O)N[C@@H](C)C(=O)N[C@@H](CCC(=O)O)C(=O)N[C@@H](CC(N)=O)C(=O)N[C@@H](CCC(=O)O)C(=O)N[C@@H](CCC(=O)O)C(=O)N[C@@H](CC(N)=O)C(=O)NCC(=O)N[C@@H](CCC(=O)O)C(=O)N[C@@H](CCC(N)=O)C(=O)N[C@@H](CCC(=O)O)C(=O)N[C@@H](C)C(=O)N[C@@H](CC(=O)O)C(=O)N[C@@H](CC(N)=O)C(=O)N[C@@H](CCC(=O)O)C(=O)N[C@H](C(=O)N[C@@H](CC(=O)O)C(N)=O)C(C)C — Kd (KEAP1 (Homo sapiens, UniProt Q14145); binding, ITC; pH 7): 11.6 µM
CCCCCCCC[N+](CC)(CC)CCCO — Kd (potassium channel; steady-state block; Doryteuthis pealeii; internal application, with: membrane potential +100 mV): 7 µM
CC(=O)N(O)CCCCCNC(=O)CCC(=O)N(O)CCCCCNC(=O)CCC(=O)N(O)CCCCCN.[Fe+3] — Kd (Ferrichrome-binding lipoprotein FhuD (Listeria monocytogenes, UniProt Q8Y5U6); binding, tryptophan fluorescence quenching; His tag removed): 0.044 ± 0.003 µM
CCCCCCCCCCCCCCCC(=O)N[C@@H](CCC(N)=O)C(=O)O — Kd (Bifunctional cytochrome P450/NADPH--P450 reductase, heme domain (cyp102A1, Bacillus megaterium, UniProt P14779); substrate binding, substrate, UV-vis spectral titration; pH 7.4, room temperature, wild-type heme domain): 0.2 ± 0.014 µM
Nc1ncnc2c1ncn2[C@@H]1O[C@H](COP(=O)(O)OP(=O)(O)OP(=O)(O)O)[C@@H](O)[C@H]1O — Kd (matB (Rhodopseudomonas palustris, UniProt Q6ND88, C106A/K488A/Q457C/R286C); binding, fluorescence titration; pH 7.0, 20 °C): 6.4 ± 0.6 µM

A few entries again:
CC[C@H](C)[C@H](NC(=O)[C@H](CCCCN)NC(=O)[C@@H](NC(=O)[C@@H](NC(=O)[C@H](CO)NC(=O)[C@H](CC(N)=O)NC(=O)[C@@H](NC(=O)[C@H](CC(N)=O)NC(=O)[C@H](CCCCN)NC(C)=O)C(C)C)[C@@H](C)CC)C(C)C)C(=O)N[C@@H](CCC(N)=O)C(=O)N[C@@H](C)C(=O)N[C@@H](Cc1ccccc1)C(=O)N[C@@H](Cc1ccccc1)C(=O)N[C@@H](CCCNC(=N)N)C(=O)N[C@@H](C)C(=O)N[C@@H](CCCNC(=N)N)C(=O)N[C@@H](CCCCN)C(=O)N[C@@H](C)C(=O)N[C@@H](CCC(N)=O)C(=O)N[C@@H](CC(=O)O)C(=O)N[C@@H](CC(=O)O)C(=O)N[C@@H](Cc1ccc(O)cc1)C(=O)N[C@@H](CCCNC(=N)N)C(N)=O — Kd (Calmodulin-1 (CALM1, Homo sapiens, UniProt P0DP23); binding, native gel titration; 1 h, 22 °C, with: Ca2+, calmodulin 35 µM): 65 ± 12 µM
O=c1ccn([C@H]2C[C@H](O)[C@@H](COP(=O)(O)O)O2)c(=O)[nH]1 — Kd (thyX (Thermotoga maritima, UniProt Q9WYT0)): 0.03 ± 0.02 µM
